Measurements gathered from unrelated publications.
Lines come from different studies, so protocols differ. Several values in a cell are separate wells, animals, samples, runs or records. ± marks the error that the study gave.
Nuclear receptor subfamily 2 group C member 2 ligand-binding domain: Nuclear receptor subfamily 2 group C member 2, ligand-binding domain (Homo sapiens, UniProt P49116)
Sequence of UniProt P49116 (whole entry, looked up): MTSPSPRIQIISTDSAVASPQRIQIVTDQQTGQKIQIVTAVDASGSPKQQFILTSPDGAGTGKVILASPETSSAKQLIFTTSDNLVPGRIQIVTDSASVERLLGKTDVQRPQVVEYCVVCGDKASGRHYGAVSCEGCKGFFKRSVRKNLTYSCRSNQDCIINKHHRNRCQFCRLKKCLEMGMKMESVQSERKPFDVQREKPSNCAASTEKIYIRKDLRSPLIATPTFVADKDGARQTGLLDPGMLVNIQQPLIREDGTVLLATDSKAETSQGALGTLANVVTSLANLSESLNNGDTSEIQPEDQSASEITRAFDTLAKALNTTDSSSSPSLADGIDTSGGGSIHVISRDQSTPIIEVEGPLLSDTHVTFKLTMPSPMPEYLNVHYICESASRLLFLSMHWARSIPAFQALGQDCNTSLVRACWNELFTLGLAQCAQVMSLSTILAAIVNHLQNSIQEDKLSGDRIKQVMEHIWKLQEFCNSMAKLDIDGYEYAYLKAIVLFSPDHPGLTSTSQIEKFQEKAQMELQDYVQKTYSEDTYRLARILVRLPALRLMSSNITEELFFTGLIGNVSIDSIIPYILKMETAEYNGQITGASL
Pancreatic alpha-amylase: Pancreatic alpha-amylase (Homo sapiens, UniProt P04746)
Sequence of UniProt P04746 (whole entry, looked up): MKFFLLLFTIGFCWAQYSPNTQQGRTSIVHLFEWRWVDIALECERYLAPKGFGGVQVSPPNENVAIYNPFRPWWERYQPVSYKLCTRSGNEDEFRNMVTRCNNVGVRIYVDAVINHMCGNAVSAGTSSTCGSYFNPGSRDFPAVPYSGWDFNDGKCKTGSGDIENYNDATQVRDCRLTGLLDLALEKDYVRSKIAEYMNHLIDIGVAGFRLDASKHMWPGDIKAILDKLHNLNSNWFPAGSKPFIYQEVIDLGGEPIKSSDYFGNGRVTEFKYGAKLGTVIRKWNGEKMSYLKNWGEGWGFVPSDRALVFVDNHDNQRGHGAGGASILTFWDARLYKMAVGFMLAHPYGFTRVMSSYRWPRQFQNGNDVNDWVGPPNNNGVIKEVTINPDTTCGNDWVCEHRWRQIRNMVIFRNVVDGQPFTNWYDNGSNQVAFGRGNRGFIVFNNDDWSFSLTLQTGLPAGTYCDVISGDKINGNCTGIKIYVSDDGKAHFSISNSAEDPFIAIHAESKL
PKLR: Pyruvate kinase PKLR (PKLR, Homo sapiens, UniProt P30613)
Sequence of UniProt P30613 (whole entry, looked up): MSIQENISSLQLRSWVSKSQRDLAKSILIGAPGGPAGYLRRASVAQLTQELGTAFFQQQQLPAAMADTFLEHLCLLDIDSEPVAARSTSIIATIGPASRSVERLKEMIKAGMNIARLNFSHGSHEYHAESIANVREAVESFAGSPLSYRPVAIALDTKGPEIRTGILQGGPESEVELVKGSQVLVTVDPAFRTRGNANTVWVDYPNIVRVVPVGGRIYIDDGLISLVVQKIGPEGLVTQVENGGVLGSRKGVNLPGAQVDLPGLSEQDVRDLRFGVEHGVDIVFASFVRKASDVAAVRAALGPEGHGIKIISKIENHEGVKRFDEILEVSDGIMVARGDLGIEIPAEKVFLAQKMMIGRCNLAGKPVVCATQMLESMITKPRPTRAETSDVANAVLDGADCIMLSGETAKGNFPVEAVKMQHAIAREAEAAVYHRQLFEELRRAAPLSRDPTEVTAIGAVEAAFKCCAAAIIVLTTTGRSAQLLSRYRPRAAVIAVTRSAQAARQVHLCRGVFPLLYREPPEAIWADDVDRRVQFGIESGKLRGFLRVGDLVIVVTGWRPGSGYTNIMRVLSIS
T1: ssRNA, single strand (Homo sapiens); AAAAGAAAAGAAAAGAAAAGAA
Sequence of UniProt Q16774 (whole entry, unmodified, looked up): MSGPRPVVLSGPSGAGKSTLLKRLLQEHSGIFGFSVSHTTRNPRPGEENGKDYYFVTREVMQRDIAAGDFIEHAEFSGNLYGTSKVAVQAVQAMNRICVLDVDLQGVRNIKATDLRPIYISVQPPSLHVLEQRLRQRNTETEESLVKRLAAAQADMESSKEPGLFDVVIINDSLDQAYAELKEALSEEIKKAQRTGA
Sequence of UniProt O14980 (whole entry, looked up): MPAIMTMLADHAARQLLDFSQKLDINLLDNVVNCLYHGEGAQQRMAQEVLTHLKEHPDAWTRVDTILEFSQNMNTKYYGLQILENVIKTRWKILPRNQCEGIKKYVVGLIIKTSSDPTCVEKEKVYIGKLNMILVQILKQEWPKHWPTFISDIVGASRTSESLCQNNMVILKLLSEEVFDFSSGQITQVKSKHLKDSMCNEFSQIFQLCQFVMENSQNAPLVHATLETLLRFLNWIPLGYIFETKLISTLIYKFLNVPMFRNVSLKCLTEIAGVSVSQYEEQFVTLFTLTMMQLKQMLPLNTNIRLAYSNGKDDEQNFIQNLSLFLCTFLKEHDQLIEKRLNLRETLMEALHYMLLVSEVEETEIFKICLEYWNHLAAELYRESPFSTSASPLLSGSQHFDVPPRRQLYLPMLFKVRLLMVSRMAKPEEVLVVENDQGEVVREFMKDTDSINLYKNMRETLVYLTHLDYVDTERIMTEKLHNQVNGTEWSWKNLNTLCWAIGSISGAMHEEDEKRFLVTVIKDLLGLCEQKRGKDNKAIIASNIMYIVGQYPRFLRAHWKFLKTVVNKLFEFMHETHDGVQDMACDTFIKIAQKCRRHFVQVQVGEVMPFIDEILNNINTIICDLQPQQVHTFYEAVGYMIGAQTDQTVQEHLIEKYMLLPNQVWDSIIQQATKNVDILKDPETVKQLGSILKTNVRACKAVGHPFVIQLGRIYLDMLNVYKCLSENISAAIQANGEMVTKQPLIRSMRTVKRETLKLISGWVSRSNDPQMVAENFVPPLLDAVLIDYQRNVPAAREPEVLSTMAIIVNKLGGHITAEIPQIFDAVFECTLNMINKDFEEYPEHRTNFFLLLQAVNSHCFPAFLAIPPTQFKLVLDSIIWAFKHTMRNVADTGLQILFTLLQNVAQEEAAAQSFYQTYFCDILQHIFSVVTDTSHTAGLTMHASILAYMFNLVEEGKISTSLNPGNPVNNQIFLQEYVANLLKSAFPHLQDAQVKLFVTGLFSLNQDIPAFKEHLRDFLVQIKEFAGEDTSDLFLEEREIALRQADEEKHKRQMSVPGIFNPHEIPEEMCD
Sequence of UniProt P51575 (whole entry, unmodified, looked up): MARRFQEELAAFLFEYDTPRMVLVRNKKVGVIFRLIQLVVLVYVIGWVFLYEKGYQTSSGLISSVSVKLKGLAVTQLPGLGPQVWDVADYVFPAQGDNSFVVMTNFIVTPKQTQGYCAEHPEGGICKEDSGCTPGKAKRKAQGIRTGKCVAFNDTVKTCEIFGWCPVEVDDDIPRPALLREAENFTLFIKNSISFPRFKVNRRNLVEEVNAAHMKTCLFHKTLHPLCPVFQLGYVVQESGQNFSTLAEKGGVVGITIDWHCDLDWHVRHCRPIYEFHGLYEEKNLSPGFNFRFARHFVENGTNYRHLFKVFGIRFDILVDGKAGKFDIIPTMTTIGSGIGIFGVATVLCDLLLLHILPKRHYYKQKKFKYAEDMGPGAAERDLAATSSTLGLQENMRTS
Sequence of UniProt P02749 (whole entry, unmodified, looked up): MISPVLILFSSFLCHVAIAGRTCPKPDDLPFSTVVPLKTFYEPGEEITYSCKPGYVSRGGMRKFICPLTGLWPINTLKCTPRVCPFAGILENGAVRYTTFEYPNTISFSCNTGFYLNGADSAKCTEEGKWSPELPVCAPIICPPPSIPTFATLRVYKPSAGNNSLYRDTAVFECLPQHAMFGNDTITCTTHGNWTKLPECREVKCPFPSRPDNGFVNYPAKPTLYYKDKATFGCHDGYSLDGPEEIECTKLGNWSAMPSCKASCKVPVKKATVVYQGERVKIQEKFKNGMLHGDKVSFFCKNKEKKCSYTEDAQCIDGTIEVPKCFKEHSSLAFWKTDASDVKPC
Sequence of UniProt P63208 (whole entry, looked up): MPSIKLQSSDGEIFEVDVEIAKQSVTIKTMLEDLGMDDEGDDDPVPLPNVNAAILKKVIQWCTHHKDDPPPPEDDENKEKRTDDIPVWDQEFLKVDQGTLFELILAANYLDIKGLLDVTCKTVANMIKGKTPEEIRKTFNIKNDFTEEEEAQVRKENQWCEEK
Sequence of UniProt P12763 (whole entry, unmodified, looked up): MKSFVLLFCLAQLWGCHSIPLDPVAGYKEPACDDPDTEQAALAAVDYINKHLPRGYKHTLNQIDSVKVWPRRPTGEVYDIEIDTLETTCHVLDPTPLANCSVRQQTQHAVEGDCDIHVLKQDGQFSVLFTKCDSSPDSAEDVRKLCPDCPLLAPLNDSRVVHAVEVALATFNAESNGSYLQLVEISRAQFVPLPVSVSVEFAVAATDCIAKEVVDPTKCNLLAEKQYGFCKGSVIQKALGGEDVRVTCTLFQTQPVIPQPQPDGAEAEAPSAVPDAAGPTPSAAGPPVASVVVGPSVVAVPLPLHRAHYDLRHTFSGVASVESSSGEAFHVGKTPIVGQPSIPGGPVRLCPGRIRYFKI
Sequence of UniProt Q13639 (whole entry, looked up): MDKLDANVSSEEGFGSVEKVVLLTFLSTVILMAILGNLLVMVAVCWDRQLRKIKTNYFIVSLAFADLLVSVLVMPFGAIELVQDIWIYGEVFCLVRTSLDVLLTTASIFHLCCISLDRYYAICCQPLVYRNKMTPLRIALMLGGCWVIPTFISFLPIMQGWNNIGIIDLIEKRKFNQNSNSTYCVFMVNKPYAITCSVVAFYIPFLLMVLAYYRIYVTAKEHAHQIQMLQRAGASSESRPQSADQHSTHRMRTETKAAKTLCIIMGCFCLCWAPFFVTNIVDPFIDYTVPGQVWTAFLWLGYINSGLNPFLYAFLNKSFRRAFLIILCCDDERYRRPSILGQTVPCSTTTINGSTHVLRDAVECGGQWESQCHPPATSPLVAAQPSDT

CC1Cc2ccccc2N1C(=O)NCCCCN(C)[C@@H]1Cc2cccc3[nH]c(=O)n(c23)C1 (mixture of isomers) — Hill coefficient (HTR1A (Homo sapiens, UniProt P08908); binding; with: [3H]8-OH-DPAT): -0.48 ± 0.01
COCCC(=O)N1CCC(Oc2ccccc2)C1 (stereo not shown) — log fold enrichment (S-phase kinase-associated protein 1 (SKP1, Homo sapiens, UniProt P63208); binding, affinity selection mass spectrometry; relative to: other proteins in batch): -0.0735
NCCCC(=O)O — normalised MST signal (SLC6A6 (Homo sapiens, UniProt P31641, G62A); binding, microscale thermophoresis; 488 nM, room temperature, with: 50 nM labelled protein; higher = more binding): -0.0782
CO[C@H]1O[C@H](COS(=O)(=O)O)[C@@H](O[C@@H]2O[C@@H](C(=O)O)[C@@H](O[C@H]3O[C@H](COS(=O)(=O)O)[C@@H](O[C@@H]4O[C@H](C(=O)O)[C@@H](O[C@H]5O[C@H](COS(=O)(=O)O)[C@@H](O)[C@H](O)[C@H]5NS(=O)(=O)O)[C@H](O)[C@H]4O)[C@H](OS(=O)(=O)O)[C@H]3NS(=O)(=O)O)[C@H](O)[C@H]2OS(=O)(=O)O)[C@H](O)[C@H]1NS(=O)(=O)O — entropic contribution TΔS (Beta-2-glycoprotein 1, domain V (APOH, Homo sapiens, UniProt P02749, V266L); isothermal titration calorimetry; 298 K, with: 150 mM NaCl): 1.93 kcal/mol
c1ccc(-c2n[nH]cc2-c2ccnc3ccccc23)nc1 — log2 fold change (Serine/threonine-protein kinase CBK1 (CBK1, Candida albicans, UniProt Q5AP53); kinase binding, competitor, MIB/MS competition, item: CBK1; Candida albicans cell lysate; 100 nM; relative to: DMSO): 1.48
COc1cc(-c2cc(C(C)=O)n3ccccc23)cc(OC)c1Cn1ccnc1 — ΔTm (Bromodomain testis-specific protein, BD1 (BRDT, Homo sapiens, UniProt Q58F21)): 2.8 °C
Nc1nc2c(ncn2[C@@H]2O[C@H](COP(=O)(O)OP(=O)(O)O)[C@@H](O)[C@H]2O)c(=O)[nH]1 — ΔH of binding (GUK1 (Homo sapiens, UniProt Q16774); ITC; concentration not given): -6.51 ± 0.8 kcal/mol
CC[C@@H]1[C@H](F)C(=O)N[C@@H]1COc1nccc2cc(C(N)=O)c(OC)cc12 — inhibition (CDK14 (Homo sapiens, UniProt O94921); ATP probe binding, KiNativ profiling, item: Lys2 probe site; THP-1 cell lysate; 0.01 mM): -16.8%
NC(Cc1cc(I)c(Oc2cc(I)c(O)c(I)c2)c(I)c1)C(=O)O (stereo not shown) — uptake (SLCO1A2 (Homo sapiens, UniProt P46721); substrate; COS-1 transfected with SLCO1A2; 60 min, 37 °C; relative to: empty vector-transfected cells): increased
COc1cc2c(cc1OC)C(=O)C(CC1CCN(Cc3ccccc3)CC1)C2 (stereo not shown) — inhibition (HTR4 (Homo sapiens, UniProt Q13639); radioligand binding; concentration not given): 3.7%
Nc1nc(O)c2ncn(COC(CO)CO)c2n1 — koff (Nuclear receptor subfamily 2 group C member 2 ligand-binding domain; SPR imaging; 600 nM): 1.23e-05 s⁻¹
O=c1nc(SCc2cc(F)cc(C(F)(F)F)c2)nc(SCc2ccc3sccc3c2)[nH]1 — decatenated DNA (TOP2A (Homo sapiens, UniProt P11388); decatenation; 125 µM, replicate 2): 0%
CC[S+]([O-])c1nc(-c2ccccc2)cc(C(F)(F)F)n1 (stereo not shown) — cells with nuclear reporter (Exportin-1 (XPO1, Homo sapiens, UniProt O14980); nuclear export, high content imaging; HeLa Kyoto reporter; 50 µM, 2 h): 2.96% and 0.95% and 4.58%
CCCC[C@H]1CN(c2cccc(OC(F)(F)F)c2)C(=O)CN1Cc1cncn1Cc1ccc(Oc2ccccc2)c(C#N)c1 — IC50 (Cryptococcus neoformans farnesyltransferase; enzyme activity, inhibitor, fluorescence; with: 1 µM FPP, 0.5 µM dansylated peptide): 0.21 ± 0.1 µM
O=C(CN1CCO[C@H](COc2cccc(Cl)c2)C1)N1CCc2ccccc21 — inhibition (DRD5 (Homo sapiens, UniProt P21918); radioligand binding; concentration not given, with: [3H]SCH23390): 5.6%
CN1CC2c3ccccc3Oc3ccc(Cl)cc3C2C1 (stereo not shown) — koff (Nuclear receptor subfamily 2 group C member 2 ligand-binding domain; SPR imaging; 600 nM): 1.21e-05 s⁻¹
C=CC(=O)N1CCC(COCC(=O)N2CCN(c3nc(-c4cnc(N)nc4C(F)F)nc(N4CCOC[C@@H]4C)n3)CC2)CC1 — remaining binding (MARK2 (Homo sapiens, UniProt Q7KZI7); KINOMEscan; 1 µM): 77%
CC(C)C[C@@H]1NC(=O)[C@H](C(C)C)NC(=O)CNC(=O)[C@H](CC(N)=O)NC(=O)[C@@H]2CCCN2C(=O)[C@H](Cc2ccc(O)cc2)NC(=O)[C@H](CCCNC(=N)N)NC(=O)[C@H](Cc2ccccc2)NC(=O)[C@@H](NC(=O)[C@H](CCCCN)NC(=O)[C@@H]2CCCN2C(=O)[C@H](C)NC(=O)[C@H](C)NC(=O)[C@@H](N)Cc2ccc(O)cc2)CSSC[C@@H](C(=O)N[C@H](C(N)=O)[C@@H](C)O)NC(=O)[C@H](C)NC1=O — -ΔG (Alpha-2-HS-glycoprotein, asialo (AHSG, Bos taurus, UniProt P12763); binding, isothermal titration calorimetry; pH 7.0, 25 °C, with: asialofetuin): 5.75 kcal/mol
O=C1OC(c2ccccc2)=N/C1=C\c1cccc(O)c1 — Vmax (Pancreatic alpha-amylase; inhibitor, Lineweaver-Burk; 300 ppm, with: starch substrate): 0.059 mg/mL/min
C[C@@H](c1ccc(-n2cnc3c(N)ncnc32)cc1)N1CCc2nn(C)c(Cc3ccccc3)c2C1=O — remaining binding (ACVR2B (Homo sapiens, UniProt Q13705); KINOMEscan; 0.1 µM; relative to: DMSO): 76%
Nc1ncnc2c1ncn2[C@@H]1O[C@H](COP(=O)(O)OP(=O)(O)NP(=O)(O)O)[C@@H](O)[C@H]1O — ΔS (Cell cycle histidine kinase CckA, CA domain (Caulobacter vibrioides, UniProt Q9X688); ITC; without c-di-GMP): 15.8 cal/mol/K
C[C@@H](NCCCc1cccc(C(F)(F)F)c1)c1cccc2ccccc12 — koff (Nuclear receptor subfamily 2 group C member 2 ligand-binding domain; SPR imaging; 600 nM): 1.46e-05 s⁻¹
Oc1ccccc1-c1n[nH]cc1-c1ccnc2ccccc12 — log2 fold change (Serine/threonine-protein kinase GIN4 (GIN4, Candida albicans, UniProt Q59W62); kinase binding, MIB/MS competition; Candida albicans lysate; 10 µM; relative to: DMSO, negative = stronger binding): 0.17
COc1cc(NC(=O)c2cscn2)ccc1/N=N/c1ccccc1Cl — activation (GRM7 (Homo sapiens, UniProt Q14831); positive allosteric modulator, IP accumulation; HEK293; 30 µM, in the dark, with: low-dose orthosteric agonist): 2.3%
Oc1ccc([C@@H]2c3c(O)cc(O)cc3[C@@H]3c4c(cc(O)c5c4[C@@H]2[C@H](c2ccc(O)cc2)[C@H]5c2cc(O)cc4c2[C@@H](c2cc(O)cc(O)c2)[C@H](c2ccc(O)cc2)O4)O[C@H]3c2ccc(O)cc2)cc1 — Vmax (Pancreatic alpha-amylase; enzyme activity; 0.5 µM): 1420 ± 86 µmol/min
Nc1ncnc2c1ncn2[C@@H]1O[C@H](COP(=O)(O)CP(=O)(O)OP(=O)(O)O)[C@@H](O)[C@H]1O — specific binding (P2X purinoceptor 1 (P2RX1, Homo sapiens, UniProt P51575, K215A); saturation binding; HEK293; 13 nM): 1290 CCPM and 1730 CCPM
N[C@@H](Cc1ccccc1)C(=O)O — -TΔS (PAL1 (Petroselinum crispum, UniProt P24481, Y110F); binding, ITC): 31.2 kcal/mol
COC(=O)c1ccccc1SC1=NS(=O)(=O)c2ccccc21 — Km decrease (PKLR; enzyme activity, activator, ADP and PEP titration; 0.5 mM, apparent Km, with: PEP or ADP substrate; relative to: DMSO): ~30%
O=C1OC(c2ccccc2)=N/C1=C\c1ccccc1O — Km (Pancreatic alpha-amylase; inhibitor, Lineweaver-Burk; 100 ppm, with: starch substrate): 1350 µM
Nc1nc2c(ncn2[C@@H]2O[C@H](COP(=O)(O)O)[C@@H](O)[C@H]2O)c(=O)[nH]1 — reaction rate (GUK1 (Homo sapiens, UniProt Q16774, R44A); enzyme activity, NADH-coupled; 31.25 µM): -0.0375 s⁻¹ and -0.897 s⁻¹ and -0.503 s⁻¹
CC1CCCN(C(=O)c2cc3ncccn3n2)C1 (stereo not shown) — fold enrichment (F-box only protein 22, with SKP1 (Homo sapiens, UniProt Q8NEZ5); binding, affinity selection mass spectrometry; relative to: other proteins in batch): 0.815
Oc1ccc(/C=C/c2cc(O)cc(O)c2)cc1 — koff fold decrease (O-methyltransferase (Sorghum bicolor, UniProt A0A1B6PFV1); biolayer interferometry; with: saturating SAH; relative to: apo protein): 7.26 fold
C=C1/C(=C\C=C2/CCC[C@]3(C)[C@@H]([C@H](C)/C=C/[C@H](C)C(C)C)CC[C@@H]23)C[C@@H](O)C[C@@H]1O — koff (Nuclear receptor subfamily 2 group C member 2 ligand-binding domain; SPR imaging; 600 nM): 2.67e-07 s⁻¹
CC(Oc1ccccc1)C(=O)NCc1ccccn1 (stereo not shown) — log fold enrichment (Coatomer subunit beta', WD repeat domain (Homo sapiens, UniProt P35606); binding, affinity selection mass spectrometry; relative to: other proteins in batch): -0.144
CC[C@H](C)[C@@H]1NC(=O)[C@H](C)NC(=O)[C@H]([C@@H](C)CC)NC(=O)[C@H](CCC(N)=O)NC(=O)[C@H](C)NC(=O)[C@H](CCCNC(=N)N)NC(=O)[C@H](C(C)C)NC(=O)[C@H](CC(C)C)NC(=O)[C@H](CCC(=O)O)NC(=O)[C@H](CCCNC(=N)N)NC(=O)CNC(=O)[C@@H](NC(=O)[C@H](CC(C)C)NC(=O)[C@H](CCCCN)NC(=O)[C@@H](NC(=O)[C@@H](NC(=O)[C@H](CCC(=O)O)NC(=O)[C@H](CCC(=O)O)NC(=O)[C@H](CCSC)NC(=O)[C@H](Cc2c[nH]c3ccccc23)NC(=O)[C@H](CO)NC(=O)[C@@H](N)CC(=O)O)C(C)C)[C@@H](C)CC)CSSC[C@@H]2NC(=O)[C@@H](NC(=O)[C@H](CCCCN)NC(=O)[C@H](CC(N)=O)NC(=O)[C@H](C)NC(=O)[C@H](CC(C)C)NC(=O)[C@H](C)NC(=O)[C@H](CO)NC(=O)[C@H](Cc3ccc(O)cc3)NC(=O)[C@H](CC(C)C)NC(=O)[C@H](CCC(N)=O)NC(=O)c3ccc(-c4c5ccc(=[N+](C)C)cc-5oc5cc(N(C)C)ccc45)c(C(=O)[O-])c3)CSSC[C@H](NC(=O)CNC(=O)[C@H](C(C)C)NC(=O)[C@H](Cc3c[nH]cn3)NC2=O)C(=O)N[C@@H]([C@@H](C)O)C(=O)N[C@@H](CCCCN)C(=O)N[C@@H](CCCNC(=N)N)C(=O)N[C@@H](CO)C(=O)N[C@@H](CC(C)C)C(=O)N[C@@H](C)C(=O)N[C@@H](CCCNC(=N)N)C(=O)N[C@@H](Cc2ccccc2)C(=O)N[C@H](C(=O)O)CSSC[C@@H](C(=O)NCC(=O)N[C@@H](CCSC)C(=O)N[C@@H](CO)C(=O)N[C@H](C(=O)N[C@@H](Cc2c[nH]c3ccccc23)C(=O)N[C@@H](CO)C(=O)O)[C@@H](C)O)NC1=O — dissociation plateau (Relaxin receptor 1 (RXFP1, Homo sapiens, UniProt Q9HBX9); binding, NanoBRET; with: relaxin 10 nM): 23.9%
CN(C)c1ccc(Nc2c3ccc(NC(=O)CCN4CCCC4)cc3nc3cc(NC(=O)CCN4CCCC4)ccc23)cc1 — binding (T1, ssRNA, single strand (Homo sapiens); 1H NMR peak broadening): no binding
CC[C@H](C)[C@@H]1NC(=O)[C@H]([C@@H](C)O)NC(=O)[C@@H]2CCCN2C(=O)[C@H](CC(C)C)NC(=O)[C@H](Cc2ccc(O)cc2)NC(=O)CSC[C@@H](C(N)=O)NC(=O)[C@H](CC(C)C)NC(=O)[C@@H]2CCCN2C(=O)[C@H](Cc2c[nH]cn2)NC(=O)[C@H](Cc2c[nH]c3ccccc23)NC(=O)[C@H](CC(C)C)NC(=O)[C@H](Cc2c[nH]cn2)NC(=O)CNC(=O)[C@H](C(C)C)NC(=O)CNC(=O)[C@H]([C@@H](C)O)NC1=O — ΔG (VPS35/VPS29 (Homo sapiens, UniProt Q96QK1+Q9UBQ0); binding, ITC; 25 °C, heterodimer): -8.4 ± 0.08 kcal/mol
COc1cc(C(=O)NC2CCCNC2)cc(OC)c1OC (stereo not shown) — koff (Nuclear receptor subfamily 2 group C member 2 ligand-binding domain; SPR imaging; 600 nM): 4.51e-08 s⁻¹
Cc1cc(-c2ccnc3[nH]cc(F)c23)cc(F)c1[C@@]1(O)[C@H](C)CN(C2CCS(=O)(=O)CC2)C[C@@H]1C — inhibition (AKT1 and AKT3; ATP probe binding, KiNativ, item: Lys1 site; HEK293T cell lysate; 1 µM): -3.7%
O=C(COP(=O)(O)O)[C@@H](O)[C@H](O)[C@H](O)COP(=O)(O)O — thermal stability ratio (PKLR; thermal proteome profiling; HepG2 cell lysate; concentration not given, 57 over 37 °C, mean; relative to: compound over control): 0.598
CN=C(NC)NCCC[C@H](NC(=O)[C@H](C)N)C(=O)N[C@H](C(=O)N[C@@H](CCCCN)C(=O)N[C@@H](CCC(N)=O)C(=O)N[C@H](C(=O)N[C@@H](C)C(=O)N[C@@H](CCCNC(=N)N)C(=O)N[C@@H](CCCCN)C(=O)N[C@@H](CO)C(=O)O)[C@@H](C)O)[C@@H](C)O — binding entropy (Transcriptional regulator ATRX (ATRX, Homo sapiens, UniProt P46100, F284Y/K251R); isothermal titration calorimetry; concentration not given, pH 7.5, 25.0 °C): 8.33 cal/mol/K
O=C(NC1CCC1)c1ccc2nc(-c3cccc(NS(=O)(=O)NCCN4CCCCC4)c3)cn2c1 — remaining activity (GRK3 (Homo sapiens, UniProt P35626); enzyme activity; 10 µM): 100%
C=CC(=O)N1CCN(c2nc(OC[C@@H]3CCCN3C)nc3c(F)c(-c4nc(N)cc(C)c4C(F)(F)F)c(Cl)cc23)[C@@H](C)C1 — dissociation rate constant koff (GTPase KRas, GDP-bound (KRAS, Homo sapiens, UniProt P01116, G13D); SPR): 0.0803 ± 0.0045 s⁻¹
